Measurements of several laboratories.
Numbered parts are unrelated; each lists some results of a single study. Substitutions count along the parent as printed.

Sample 1
Target: Sal-like protein 4, full length isoform B (SALL4, Homo sapiens, UniProt Q9UJQ4-2, residues 1-616)
Method: universal PBM
Form: double-stranded DNA, one strand shown
Matrix: in vitro
Tested at: not given
Notes: 8-mer, flanks averaged, mean of replicates
Reading: higher = stronger binding
Construct (chain): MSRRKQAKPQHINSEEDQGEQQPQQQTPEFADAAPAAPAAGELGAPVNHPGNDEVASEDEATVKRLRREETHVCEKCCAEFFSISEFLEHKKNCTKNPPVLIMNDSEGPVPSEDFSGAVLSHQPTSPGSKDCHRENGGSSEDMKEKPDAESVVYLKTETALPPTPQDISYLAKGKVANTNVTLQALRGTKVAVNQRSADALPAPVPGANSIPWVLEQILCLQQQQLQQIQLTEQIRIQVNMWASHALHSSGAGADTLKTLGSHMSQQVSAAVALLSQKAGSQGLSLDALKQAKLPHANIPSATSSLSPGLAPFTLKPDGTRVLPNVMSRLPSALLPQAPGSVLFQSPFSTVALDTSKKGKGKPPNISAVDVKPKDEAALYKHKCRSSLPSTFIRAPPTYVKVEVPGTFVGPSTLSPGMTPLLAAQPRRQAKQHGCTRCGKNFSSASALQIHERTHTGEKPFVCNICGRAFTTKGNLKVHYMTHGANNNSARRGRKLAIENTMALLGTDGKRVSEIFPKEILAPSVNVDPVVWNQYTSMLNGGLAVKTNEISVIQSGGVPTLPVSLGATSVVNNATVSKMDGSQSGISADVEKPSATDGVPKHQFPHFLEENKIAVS
Strand | E-score
AGCGCATC | -0.187
AAAAGTCA | 0.0518
AGAGGTAT | 0.12
AAAGTCAT | 0.164
CCCGCGAC | -0.305
CCCAATGC | -0.151
ACCGAGAT | 0.0616
AGTCTATA | 0.248
GAGCCGCC | -0.338
CTATGCTC | -0.161
CACCGTCC | -0.244
CTACAGTA | 0.0864
ATCTGCGC | -0.156
AGTGTGGG | -0.0276
ACGCAAGC | -0.0606
GCGTGAAA | 0.102
CCCAATGA | 0.0698
TCCAAGGA | -0.0249
AGACGATC | -0.265
AGGCCGCC | -0.412
AAGGGAGG | -0.188
ATCTTAGC | 0.0369
ACTGAAAA | 0.255
AAGGAGTC | -0.0483
AATCCATC | 0.107

Sample 2
Target: Protein C-ets-1 (ETS1, Homo sapiens, UniProt P14921, residues 1-441, K379A, full length assumed)
UniProt P14921, sequence (whole entry, unmodified, looked up): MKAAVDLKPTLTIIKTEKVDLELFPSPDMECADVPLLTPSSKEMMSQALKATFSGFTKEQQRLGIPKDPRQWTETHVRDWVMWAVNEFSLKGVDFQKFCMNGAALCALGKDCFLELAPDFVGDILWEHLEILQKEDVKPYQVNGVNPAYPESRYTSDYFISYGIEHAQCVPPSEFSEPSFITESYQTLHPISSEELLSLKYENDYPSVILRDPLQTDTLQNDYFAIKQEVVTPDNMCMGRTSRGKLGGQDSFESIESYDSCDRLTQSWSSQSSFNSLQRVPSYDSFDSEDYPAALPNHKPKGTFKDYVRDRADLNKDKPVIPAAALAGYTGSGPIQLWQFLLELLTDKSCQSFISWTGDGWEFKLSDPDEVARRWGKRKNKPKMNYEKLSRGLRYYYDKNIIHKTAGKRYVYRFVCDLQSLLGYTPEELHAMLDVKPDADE
Method: protein-binding microarray
Form: double-stranded DNA, one strand shown
Matrix: in vitro
Tested at: not given
Notes: k-mer, scored over probes, only values ≥0.25
Reading: higher = stronger binding
Strand | E-score
ACAGTACA | 0.317
CCCCACCC | 0.314
CCCACCCG | 0.369
ACCGACGT | 0.382
ACATGATA | 0.252
CGGTATAG | 0.304
ACCGGGAT | 0.435
ACATCCCG | 0.274
CCGGGGGC | 0.329
AATAACTG | 0.274
ACGATACA | 0.272
CCGGCACG | 0.309
ATGTAAAA | 0.254
TAACGTAA | 0.279
CAGACACC | 0.256
ACTGTATG | 0.252
AGCGCCGG | 0.294
TTACCGAA | 0.319
CGGGAAGA | 0.264
AACCGGAT | 0.424
ACCGGACA | 0.272
GCCGGGAA | 0.303
GCCGGGGA | 0.381
GTCATGAC | 0.306
GGGTATAC | 0.272

Sample 3
Target: RNA binding protein fox-1 homolog 2, RRM domain, GST-SBP tag (RBFOX2, Homo sapiens, UniProt O43251-10, residues 100-194)
Method: RNA Bind-n-Seq
Form: RNA
Matrix: in vitro
Tested at: 365 nM
Notes: natural RNA segment, single round, ends assumed
Relative to: no-protein control
Reading: higher = stronger binding
Construct (chain): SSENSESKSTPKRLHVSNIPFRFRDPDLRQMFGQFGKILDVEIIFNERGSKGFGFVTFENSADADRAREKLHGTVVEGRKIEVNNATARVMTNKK
Strand | RBNS enrichment (R)
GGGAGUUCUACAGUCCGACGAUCGAUCCUGAGGGAAGGGGCAGGGAUUUCUCCUUCUUCUUGGUCCUGGCUCCCAAGGGCUUCUGUCUUCAUCUCUGCAUGAGCUCUCCUUCCCAGAGACCAACUCUUUUUUAUGGAAUUCUCGGGUGCCAA | 0.699
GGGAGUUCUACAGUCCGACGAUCUUGACAACUGUUUACCAUUGUGUUUAGGUUAUAUUCUAUAAAUACUCUUUAUAUGCAUAUAUAUGGCUAUAAAUAUAAAUUUUGUAUUACUGGUACCAAAAACACUUUUUUGGAAUUCUCGGGUGCCAA | 0.38
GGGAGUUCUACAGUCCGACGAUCGGAACACCGGAACAUCAUGCUCACCUGCCAUCACUAUGCAUCCAGUUCCCACAGCUUGUGUCGUGAAAGAGCAGAGAGAUGAUGUUAAACUCCUUGGGAGGAGAGAGGGCUGGAAUUCUCGGGUGCCAA | 0.325
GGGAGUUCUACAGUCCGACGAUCGGGAACGGGUGUGAGCAGCUCUGGCUCCUGACCCUCACCGGGUCCGCUUUGCCCCAGUGAAGAGACAGCAUUCCUUCCUGUGCAGACCUGAGUGCAGAGUGUGUCCAUCUUGGAAUUCUCGGGUGCCAA | 0.299
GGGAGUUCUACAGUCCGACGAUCGGUGCCUGCCACCAUGGUGGGAUCCAGUAUGUUUUAUAAAUCUGAAUGAGUAAAUGGCUCACCAAUUUAUGCAUAGCCCUGCACAUGAGCAGAAUGUGACACUCAAAGCAUGGAAUUCUCGGGUGCCAA | 2.75
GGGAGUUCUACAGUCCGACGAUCCAAAUGUGAGUCUCCUGAUCAAUUUAAAUGUUUGAGAUUGAAUAUCUAAUUAAUAAUUCAAUUUUGAAAAUUCUCAAAAAAAUUUGAGGAUUUAAGCCUAGGGAUUUUAUUGGAAUUCUCGGGUGCCAA | 1.24
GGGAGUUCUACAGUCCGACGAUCAUUGGGUUACUGUAUAAGGAAAAUGGCAGGGGAGUUGUGGGAAGCUUGUCUUUACAAAAUAUAAUUGAUUAAGAUAUGUCAAGACCUACAUUGUCUAAGCACCGGCAAAUUGGAAUUCUCGGGUGCCAA | 0.395
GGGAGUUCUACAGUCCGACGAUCUGGCCUGCAACUGGAGACUGCUAAGCCCUGACGUCUGGUGCCGAGGUCGUCUGCAGGGUUUUGCCCUUGGUUUACUGAGGGGGGCUGAGCUGCUGCUGGUCCCCCCUUCUUGGAAUUCUCGGGUGCCAA | 1.74
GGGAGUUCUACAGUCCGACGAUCGAACACCUACUGUGUGCCAGGCACUUUACAUCCCCCCCUCAGUGUCUACCUAGUCUGCUGGGCUGAUAGUGAAGCACCGAGGUUGAUGGACUUACAUUCCCAGUGUGCCUUGGAAUUCUCGGGUGCCAA | 0.483
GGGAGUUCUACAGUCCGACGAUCAGCCUGUUUGGGGAGACCACCCUGUACCCGUGACUUUCGUUUUUAAUAAUAAUAAUAAUAAUAAUAAAAGAUGUCACUUCUGGGGCUACGGAGGUGGGAGUGCACCGGCGUGGAAUUCUCGGGUGCCAA | 1.47
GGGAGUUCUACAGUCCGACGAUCAGAGUUGGGGACCCCUGUUGGCCACUUGUUGACCUCUCAUAGUGGUGCUUGGGCCAGGUCUUCUCAAUGGAAGGGGAAUCCCUUAUAGGGGAGAGGGAACAGAGCCCAGUUGGAAUUCUCGGGUGCCAA | 0.462
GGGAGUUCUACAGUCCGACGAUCGCCAAGCACCUUGAAUGGGAGGGGCCUCACAGAGGGCAGGGCCAGGGUCCAGCAGGGGUGGGGGGUUCCUGCUCUGCCCCUGCCCGUCCCCACCCAGUCUUGCCCUCCCAUGGAAUUCUCGGGUGCCAA | 1.54

Sample 4
Target: Histone acetyltransferase KAT6A, winged helix 2, GST fusion (KAT6A, Homo sapiens, UniProt Q92794, residues 85-181)
Method: protein binding microarray
Form: double-stranded DNA, one strand shown
Matrix: in vitro
Tested at: not given
Notes: 8-mer, flanks averaged, mean of 2 arrays, mostly near background
Relative to: not given
Reading: higher = stronger binding
Target sequence (chain): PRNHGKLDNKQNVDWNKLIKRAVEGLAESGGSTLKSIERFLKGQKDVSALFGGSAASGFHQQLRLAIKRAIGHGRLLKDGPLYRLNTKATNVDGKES
Strand | E-score
ACGAGAGG | 0.0247
CCGTACAA | -0.0812
ATTCAATA | 0.0181
GACATTAC | -0.0429
CCACGAGC | -0.0547
CTCTTAAA | 0.107
ACCAGGGC | -0.0628
AGGAATAA | -0.0403
GATATTAC | 0.00917
AATGGCGT | -0.018
AGGTATTA | -0.0165
AACATATG | -0.231
ATGAGATG | 0.0179
ACCTACCA | -0.114
CTATGCTA | 0.102
TGTCAGAA | 0.0929
AAGCAGGA | 0.0196
CTATGGTC | -0.097
ACGCCTGC | 0.00177
AGTTACTA | -0.0946
GATGGGAA | -0.106

Sample 5
Target: Interferon regulatory factor 5, full length, phosphomimetic (IRF5, Homo sapiens, UniProt Q13568-2, residues 1-514, K96S/S451D/S453D/S456D/S462D)
Method: protein-binding microarray
Form: double-stranded DNA, one strand shown
Matrix: in vitro
Tested at: 250 nM
Notes: 60-bp whole probe
Added: salmon DNA 0.4 mg/ml
Relative to: random background probes
Reading: higher = stronger binding
Shared flanks, not repeated: GCCTAGCAC … GTCTTGATTCGCTTGACGCTGCTG
Strand | log fluorescence [z-score]
AGAGTTCCAGACAGCTCCCTGTGCTAG | -0.402
GAATTTCCCACTTTCAGTTCGTGCTAG | 5.78
TCACTTGTCCCTCCGGGACTGTGCTAG | -0.0978
TTAGGTATCGACTTTCGCTTAGTGCTA | 7.89
GACGGTCTCGGGTATCGGGACGTGCTA | 0.536
GACGATTTCCGTTCCGAGACGTGCTAG | 0.559
TTCGATCTCAGTTTCGATTAGTGCTAG | 9.35
GACGGTTTCTGACTGGGGACGTGCTAG | 0.672
TTAGGTATCGACAGTGGGTTAGTGCTA | 2.49
TTAGGACTGGGTTTCGGTTGGTGCTAG | 7.58
TTAGGTTTCTTTTCCCTTTAGTGCTAG | 1.67
TAGCTTCCATTTTCTGAACGTGTGCTA | 1.28
CTAGGTTTCGGTTCCGGTTAGTGCTAG | 10.2
ATAGATATCAGTATCGATTAGTGCTAG | 7.92
CATGAACTGTTTCTTGAAAAGTGCTAG | 0.569
GACGGACTGGACTATCGGGATGTGCTA | 1.02
GACGATATCGGCTTTCGAGACGTGCTA | 4.08
GACTGTATCGGTATCGGGACGTGCTAG | 6.46
GTTTGTATATATTTTAACCCGTGCTAG | 0.499
GGCGGACTGGACTTTCGGGACGTGCTA | 4.29
TTAGGACTGGACTACCGGTTAGTGCTA | -0.341
TTAGATTTCGGGACTGGAGTAGTGCTA | 2.57
ATATACCTGTATATCTTCAGGTGCTAG | 0.362
ATCCATTTTGGTTTTCATTAGTGCTAG | 2.1

Sample 6
Target: CCNE2, cyclin fold, Cln2 fusion (human)
Method: yeast growth competition, sequencing
Matrix: yeast
Notes: weak parent motif
Relative to: not given
Reading: higher = stronger binding
Starting sequence: AKAP12 docking peptide (human); GSPLKKLFTSTGL
Change | normalised enrichment score
S2A | 1.16
F8L | 0.191
S10A | 0.5
L4A | -0.0125
P3A | 0.963
K5A L7A | -0.252
G12A | -0.372
L13A | 0.0721
K5R F8L | 0.549
F8A | 0.161
